Assay results collected from several papers.
Parts stem from different laboratories: compare values within a part only.
Sequence of UniProt P61075 (whole entry, looked up): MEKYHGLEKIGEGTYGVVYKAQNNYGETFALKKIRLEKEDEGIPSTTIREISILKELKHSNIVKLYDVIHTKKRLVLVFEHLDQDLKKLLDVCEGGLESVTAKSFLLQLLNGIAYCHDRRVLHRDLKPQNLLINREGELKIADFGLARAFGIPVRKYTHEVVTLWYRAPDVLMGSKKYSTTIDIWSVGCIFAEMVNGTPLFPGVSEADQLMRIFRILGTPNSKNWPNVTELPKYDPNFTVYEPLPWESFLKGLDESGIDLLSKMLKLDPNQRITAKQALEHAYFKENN
Sequence of UniProt Q9UQM7 (whole entry, looked up): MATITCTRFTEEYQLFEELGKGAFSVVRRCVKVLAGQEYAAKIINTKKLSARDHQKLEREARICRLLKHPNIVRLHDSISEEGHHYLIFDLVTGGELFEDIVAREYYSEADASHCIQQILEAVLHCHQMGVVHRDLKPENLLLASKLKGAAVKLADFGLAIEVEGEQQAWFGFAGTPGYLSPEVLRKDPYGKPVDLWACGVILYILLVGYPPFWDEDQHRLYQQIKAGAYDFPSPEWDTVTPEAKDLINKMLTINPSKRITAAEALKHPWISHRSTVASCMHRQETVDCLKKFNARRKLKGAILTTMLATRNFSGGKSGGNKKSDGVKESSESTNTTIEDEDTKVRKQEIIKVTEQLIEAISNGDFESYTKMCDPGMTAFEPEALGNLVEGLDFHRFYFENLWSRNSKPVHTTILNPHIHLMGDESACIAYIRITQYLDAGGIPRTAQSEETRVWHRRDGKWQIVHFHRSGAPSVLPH
Sequence of UniProt P9WI81 (whole entry, looked up): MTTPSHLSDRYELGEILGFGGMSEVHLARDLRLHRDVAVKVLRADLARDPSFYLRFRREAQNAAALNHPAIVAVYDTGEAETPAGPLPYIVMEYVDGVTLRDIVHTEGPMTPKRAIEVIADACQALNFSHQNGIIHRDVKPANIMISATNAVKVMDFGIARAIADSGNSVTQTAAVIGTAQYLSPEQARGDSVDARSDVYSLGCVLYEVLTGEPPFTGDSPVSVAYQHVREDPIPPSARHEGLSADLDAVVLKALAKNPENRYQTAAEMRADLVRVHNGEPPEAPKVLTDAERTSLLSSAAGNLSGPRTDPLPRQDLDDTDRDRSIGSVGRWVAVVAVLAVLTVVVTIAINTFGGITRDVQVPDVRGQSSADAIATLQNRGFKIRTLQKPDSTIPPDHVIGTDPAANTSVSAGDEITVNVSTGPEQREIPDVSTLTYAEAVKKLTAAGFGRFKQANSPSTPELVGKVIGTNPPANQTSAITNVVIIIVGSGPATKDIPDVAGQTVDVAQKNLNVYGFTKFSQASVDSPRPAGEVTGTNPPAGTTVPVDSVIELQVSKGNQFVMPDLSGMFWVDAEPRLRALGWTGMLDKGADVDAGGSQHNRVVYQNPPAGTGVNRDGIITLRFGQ

Study 1
Target: HLA class I histocompatibility antigen, B alpha chain, allele B*08:02 (Homo sapiens, UniProt P01889)
Read-out: peptide-MHC binding
Molecule type: peptide
Tested at: concentration not given
`FMKSRVYSI`: binding “active”.
`SMKTRTAWF`: binding “active”.
Under binding, `FLIRRFFMF` is recorded as “active”.

Further values, each from its own experiment
`COc1cc([C@@H]2c3cc4c(cc3C[C@H]3COC(=O)[C@@H]32)OCO4)cc(OC)c1OC` has an inhibition of -16% (CAMK2A (Homo sapiens, UniProt Q9UQM7); enzyme activity, inhibitor; 10 µM).
`COC(=O)[C@@]12Cc3ccccc3[C@@H](C1)N(C(C)(C)C)O2` gave a remaining compound of 1.21% (mouse, microsomes or S9; 2 µM, 0.5 h).
The remaining binding of `COc1cccc(CNC(=O)c2nc3scc(COCc4ccc(C(=O)O)cc4)c3c(=O)[nH]2)c1` is reported as 93% (pknB (Mycobacterium tuberculosis, UniProt P9WI81); cell-free assay, competition with immobilised ligand; 1 µM).
`NC(=O)C[S+]([O-])C(c1ccccc1)c1ccccc1` (stereo not drawn) has a nuclei count of 0.0547 z-score (mouse MPNST tumor cells; high-content nuclear imaging, item: cell number; 10 µM, 12 h, mean of 2 replicates; baseline: plate mean, higher = more cells).
For `O=c1nc(-c2ccccn2)sc2ccccc12`, the remaining binding was 100% (CRK2 (Plasmodium falciparum, UniProt P61075); cell-free assay, competition with immobilised ligand; 1 µM).
The nuclei count of `Cc1cccc(C(C)c2c[nH]cn2)c1C` (stereo not drawn) is reported as 0.91 z-score (mouse MPNST tumor cells; high-content nuclear imaging, item: cell number; 10 µM, 12 h, mean of 2 replicates; baseline: plate mean, higher = more cells).
